Measurements pooled from the literature.
Numbered parts are unrelated; each lists some results of a single study. Positions count from the first letter of the parent shown.

Sample 1 — technique: DHFR PCA, deep sequencing; sample: yeast; added: (+)-ABA 2500 µM; reference: wild-type fitted maximum; reading: higher = stronger binding
Target: ABI1, truncated, D143A, DHFR fusion (Arabidopsis thaliana)
Notes: methotrexate growth selection, single substitutions
Starting sequence: PYL1, truncated, DHFR fusion (Arabidopsis thaliana); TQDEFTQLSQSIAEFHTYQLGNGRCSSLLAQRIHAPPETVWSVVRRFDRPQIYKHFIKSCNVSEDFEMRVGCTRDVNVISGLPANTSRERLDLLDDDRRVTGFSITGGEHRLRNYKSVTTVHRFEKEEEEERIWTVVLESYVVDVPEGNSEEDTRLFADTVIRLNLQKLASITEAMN
Substitution	relative binding score [%]
F103V	74.3
L28N	76.4
I162Q	32.7
T101P	-13.1
R74A	-0.0421
S150W	77
P36K	97.5
S27P	-2.49
E131I	108
Q31R	96.8
L93A	104
E129A	107
R69L	91.3
E38C	81.7
G21S	96.5
E152S	98.1
Y18V	97.4
D95K	85.4
N177T	96.7
I105S	98.2

Sample 2 — technique: RNA Bind-n-Seq; molecule type: RNA; sample: in vitro; concentration: 365 nM; reference: no-protein control; reading: higher = stronger binding
Target: RNA binding protein fox-1 homolog 2, RRM domain, GST-SBP tag (RBFOX2, Homo sapiens, UniProt O43251-10, residues 100-194)
Notes: natural RNA segment, single round, ends assumed
Constant ends, left off below: GGGAGUUCUACAGUCCGACGAUC … UGGAAUUCUCGGGUGCCAA
Residues (chain): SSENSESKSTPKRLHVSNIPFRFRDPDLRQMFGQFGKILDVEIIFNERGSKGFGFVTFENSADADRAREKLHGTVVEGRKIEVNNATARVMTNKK
Sequence	RBNS enrichment (R)
UGUUCAGAAGGGAUCAAAAUUGCCAUCUAACAGGUACCUUAAAGGAUUCCUGGGCAUCUACUUCCACAACUAAUACGUAUUCCACAGUGUUGGCUGUUGGCUUCAAAAAA	0.46
CCACUCCCACAAUCUCAGGCCUGGUACCCAUCCUCUUUCCACUGUGAGCAGAGCCAGAAGGUAGGUCUGUUCAGAGUCUGUGCCCCUGGACCUGGGGAGUGGAUAUCAGA	0.517
AGACCCGGGCGCUGCCGAGACCCCUCGGGGGCUGCACACCCAGCAGCAGCGCACGCCUCCGAAGCCUGCGGCCUCGCUUGAAGGAGGGCGUCGCCGGAAACCCAGGGAAC	0.55
UAUGUAACAAUCAUGAAUAUUAGAUUUUUUAAAUUGUAGAAUAUCCUAAUAUUUAUAGCCAGCAGCUGUUACUUUGUUUGUAAAAUUUGCAAAAAAACAAAACCUGAAGU	1.82
GGGUAUGUAAAAUAUGUAUGAAGAAAAGGUGUAUAAAAAUUUGCCCUUAUGCACGGAACUGUUUCUGAGUGCCAAGCACAGAAAGCCGCUAAAUAAAAUCUUUGCAAUUG	0.604
AGGAGAAGAAUUUUCAGACCCCAGCGGCUGAGUCAUGAUCUCCCUGCCGCCUCAAUGUGGUUGCAAGGCCGCUGUUCACCCACAGGGCUAAGAGCUAGCGCUGCCGCACC	0.29
ACAACAGGAUUCACAUUGUUAAUUUAUAAAUCUAGACUUGGAGAAUUAAGGACUGAGAAAUGACCAUAUCUUAAACUAUCUACGACAAAGUGAACUUAAAAGGACAUGCC	1.01
GUGUCCUUCAAACAUAUCCUCCUGCAACUUCUCAAACUGUACUAAAUUGAUAUUUCUUGAAGUCUAACUCUGUGCUAACAGAUCUCCAUUUUAAAUAGAAUACGGUUUUA	0.606

Sample 3 — target: MAFF, bZIP domain (human); technique: DHFR protein complementation; sample: yeast; reference: wild-type JUN-FOS pair; reading: higher = stronger binding
Notes: single substitutions, most at no-binding floor
Starting sequence: JUN, bZIP domain (human); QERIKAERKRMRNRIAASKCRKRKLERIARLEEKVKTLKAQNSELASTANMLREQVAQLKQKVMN; partner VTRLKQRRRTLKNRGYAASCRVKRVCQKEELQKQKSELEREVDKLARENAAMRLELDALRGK
Substitution	binding fitness [natural log]
L59G	-1.4
I28A	-1.38
A46T	-1.38
E44W	-1.46
N42A	-1.03
L31F	-1.31
R53H	-1.15
L45G	-1.53
E32Y	-1.44

Sample 4 — technique: protein-binding microarray; molecule type: double-stranded DNA, one strand shown; sample: in vitro; concentration: not given; reading: higher = stronger binding
Target: Max-binding protein MNT, bHLH-zipper, MAX partner unstated (MNT, Homo sapiens, UniProt Q99583, residues 220-300)
Notes: k-mer, scored over probes, only values ≥0.25
Residues (chain): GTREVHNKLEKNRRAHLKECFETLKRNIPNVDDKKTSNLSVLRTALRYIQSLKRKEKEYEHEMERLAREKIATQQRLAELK
Sequence	E-score
CGTGCAAG	0.314
CATGACAC	0.318
GGCATCAC	0.281
GCGTGTTA	0.408
CCCACGCG	0.456
ACACGCTA	0.312
CGTGGATC	0.331
TGCCGGCA	0.293
ACGTGAGG	0.374
CCCCACCC	0.34
ACGTGGGG	0.414
AACCCATG	0.261
CGCTCCAC	0.251
AAGGCACG	0.296
CGTGACAG	0.356
CCGACCCG	0.288
AGCAGGTG	0.329
CCTCATGC	0.373
GCGGTCAC	0.266
AGGCCATG	0.265
CATGTTGA	0.3

Sample 5 — target: CCND1, cyclin fold, Cln2 fusion (human); technique: yeast growth competition, sequencing; sample: yeast; notes: strong parent motif; reference: not given; reading: higher = stronger binding
Starting sequence: CDKN1A docking peptide (human); SKACRRLFGPVDS
Substitution	normalised enrichment score
SKACRSLFGPVDS [R6S]	0.887
SKACRKLFGPVDS [R6K]	2.81
SEACRRLFGPVDS [K2E]	1.65
SKACRRLDGPVDS [F8D]	0.239
SKACRRLFTPVDS [G9T]	2.65
SKACRRLCGPVDS [F8C]	0.197
SKACARAFGPVDS [R5A L7A]	-0.0502
SAACRRLFGPVDS [K2A]	2.21
SKACRRLQGPVDS [F8Q]	-0.0672
SKACRRLFGPVVS [D12V]	1.56
SKAPRRLFGPVDS [C4P]	-0.0565
SKACRRLFGDVDS [P10D]	4.12
SKACRRLFGPQDS [V11Q]	3.6
SKACRRLFGPVCS [D12C]	1.41

A few entries again (sample 4):
Sequence	E-score
CATGTTGA	0.3
AGCAGGTG	0.329
TGCCGGCA	0.293
GCGGTCAC	0.266
GCGTGTTA	0.408
CGTGACAG	0.356
CCGACCCG	0.288
